# Literature values that unrelated publications cite.
# Compare with care: the assays were run in different laboratories. “And” joins repeats or separate records; there may be more than shown. ± marks the error that the study gave.
Structure (SMILES),assay,system,conditions,quantity,result
Cc1ccnc(OC2CCOC3(CCN(C(=O)C4(c5ccccc5)CCCC4)CC3)C2)c1 (stereo not drawn),,,concentration not given,solubility,14 µM
c1ccc2c(c1)cc1ccc3cccc4c5ccccc5c2c1c34,,"zebrafish embryos, whole embryo","350.8 ng/well, 48 hpf, single exposure",amount in tissue,0.247 ng/well and 0.383 ng/well and 0.299 ng/well
CC(C)CNC(=O)[C@@H](N)Cc1ccc(OP2(=O)CO[C@@H](Cn3cnc4c(N)ncnc43)CO2)cc1 (stereo partly drawn),,mouse,oral,oral bioavailability,39%
Cn1cc2cc(C(F)(F)c3nnc4ccc(-c5cnn(C6CC6)c5)nn34)c(F)cc2n1,,"mouse, MKN-45 and patient-derived xenografts","dose not given, no deaths or major weight loss",tolerability,not toxic
CCOC(=O)C1=C[C@@H](OC(CC)CC)[C@H](NC(C)=O)[C@@H](N)C1,,"human, urine",dose not given,unchanged drug excreted in urine,< 5%
Cc1c(C(=O)NN2CCCCC2)nn(-c2ccc(Cl)cc2Cl)c1-c1ccc(Cl)cc1,,mouse,,fraction unbound,0.0004
C[C@H](c1ccccc1)n1cncc1C(=O)OCCC(=O)O,,"rat, cerebrospinal fluid",MOC-etomidate infusion,concentration,2500 ± 110 µM
Cc1cccc2c1ccc1cc(C(C)C)ccc12,,"zebrafish embryos, whole embryo","585.75 ng/well, 48 hpf, single exposure",amount in tissue,27.5 ng/well and 23.5 ng/well
Cc1nc2n(c(=O)c1CCN1CCC(c3noc4cc(F)ccc34)CC1)CCCC2O (stereo not drawn),,mouse,,fraction unbound,0.129
O=S(=O)(O)C(F)(F)C(F)(F)C(F)(F)C(F)(F)C(F)(F)C(F)(F)C(F)(F)C(F)(F)F,,plasma,,plasma fraction unbound,0.0049
COc1ccc2c(c1OC)CN1CCc3cc4c(cc3C1=C2)OCO4,,rat,oral,LD50,> 2000 mg/kg
CCCCCOc1ccc(-c2ccc(-c3ccc(C(=O)N[C@H]4C[C@@H](O)[C@@H](O)NC(=O)[C@@H]5[C@@H](O)[C@@H](C)CN5C(=O)[C@H]([C@@H](C)O)NC(=O)[C@H]([C@H](O)[C@@H](O)c5ccc(O)cc5)NC(=O)[C@@H]5C[C@@H](O)CN5C(=O)[C@H]([C@@H](C)O)NC4=O)cc3)cc2)cc1,,"human, general patient population","dose not given, sample A kg patient, typical value",central volume of distribution,11.9 L
O=C(O)c1cc(-c2ccc(C3CCNCC3)cc2)c2ccc(-c3ccc(C(F)(F)F)cc3)cc2c1,,,pH 4,solubility,1.1 ± 0.07 µg/mL
c1csc(-c2ccc(-c3cccs3)s2)c1,,rat,intraperitoneal,LD50,110 mg/kg
C[C@@H](O[C@H]1OCCN(Cc2n[nH]c(=O)[nH]2)[C@H]1c1ccc(F)cc1)c1cc(C(F)(F)F)cc(C(F)(F)F)c1,,mouse,,fraction unbound,0.002
CC(=O)C[C@@H](c1ccccc1)c1c(O)c2ccccc2oc1=O,,,,solubility,4 µg/mL
C=C[C@@H]1C[C@]1(NC(=O)[C@@H]1C[C@@H]2CN1C(=O)[C@H](C(C)(C)C)NC(=O)O[C@@H]1C[C@H]1CCCCCc1nc3ccc(OC)cc3nc1O2)C(=O)NS(=O)(=O)C1CC1,,bile duct-cannulated rat,"oral, time not given",biliary recovery,28%
O=S(=O)(O)C(F)(F)C(F)(F)C(F)(F)C(F)(F)C(F)(F)C(F)(F)C(F)(F)C(F)(F)F,literature value,,vapour phase,pKa,< 0.3
COC(=O)[C@@H](N)Cc1ccc(OP2(=O)CO[C@@H](Cn3ccc(N)nc3=O)CO2)cc1 (stereo partly drawn),,PBS,"pH 6.5, Rp isomer",half-life,0.178 days
CC(C)(C)NCC(O)COc1ccc(NC(=O)NC2CCCCC2)cc1 (stereo not drawn),,dog,,fraction unbound,0.247
CNC(=C[N+](=O)[O-])NCCSCc1ccc(CN(C)C)o1,,"human, plasma","concentration not given, range of reported values",Cmax,1.14 to 9.11 µM
COc1ccc2cc1Oc1ccc(cc1)C[C@H]1c3cc(c(OC)cc3CCN1C)Oc1c(OC)c(OC)cc3c1[C@H](C2)N(C)CC3,,human,,blood-to-plasma ratio,2.33
O=C(O)C(F)(F)C(F)(F)C(F)(F)C(F)(F)F,,plasma,,plasma fraction unbound,0.044
O=C1C[C@@H](c2ccc(O)cc2)Oc2cc(O)cc(O)c21,,"human, plasma","concentration not given, with: grapefruit juice",plasma concentration,~6 µM
O=C(O)C(F)(F)C(F)(F)C(F)(F)C(F)(F)C(F)(F)C(F)(F)C(F)(F)F,,plasma,,plasma fraction unbound,0.001
c1cc2c3c(cccc3c1)CC2,,"zebrafish embryos, whole embryo","178.9 ng/well, 48 hpf, single exposure",amount in tissue,1.15 ng/well and 1.23 ng/well and 1.06 ng/well
NC(=O)c1nc(F)c[nH]c1=O,,hamster,"intraperitoneal, 12.5 mg",lung concentration,90.7 µg/g
COC(=O)[C@H]1[C@@H](c2ccc(C)cc2)C[C@@H]2CC[C@H]1N2C/C=C/C[18F],PET,"rat, striatum","dose not given, 24 min",tissue uptake,1.44 %ID/g and 1.93 %ID/g and 1.95 %ID/g and 2.61 %ID/g and 2.17 %ID/g
NC1CCCCC1N.O=C([O-])C(=O)[O-].[Pt+2] (stereo not drawn),item: free platinum,"mice, plasma ultrafiltrate","intravenous, 8.34 mg Pt/kg",Cmax,20 µg Pt/mL
c1ccc2c(c1)-c1cccc3c1c-2cc1ccccc13,,"zebrafish embryos, whole embryo","135.99 ng/well, 48 hpf, single exposure",amount in tissue,1.19 ng/well and 0.624 ng/well and 0.651 ng/well
ClC(Cl)=C(c1ccc(Cl)cc1)c1ccc(Cl)cc1,,,25 °C,water solubility,0.12 µg/mL
CC(C)[C@H](N)C(=O)NCCCS(=O)(=O)O,,"human, plasma",265 mg twice daily,AUC(0-12h),11200 ng·h/mL
CCCc1nc2c(C)cc(-c3nc4ccccc4n3C)cc2n1Cc1ccc(-c2ccccc2C(=O)O)cc1,,dog,,fraction unbound,0.011
Cc1ccc2cc(C)ccc2c1,,"zebrafish embryos, whole embryo","181.2 ng/well, 48 hpf, single exposure",amount in tissue,0.935 ng/well and 0.963 ng/well and 1.05 ng/well
CC(CC(c1ccccc1)c1ccccc1)NC(C)(C)C (stereo not drawn),,mouse,,fraction unbound,0.049
O=C/C=C/c1ccccc1,,human plasma,concentration not given,plasma concentration,not detected
CCN(C)C(=O)Oc1cccc([C@H](C)N(C)C)c1,,plasma,"concentration not given, total concentration",Cmax,0.0999 µM
CCOP(=S)(OCC)Oc1cc(C)nc(C(C)C)n1,,,,log Kow,3.81
CC(C)(c1ccc(O)cc1)c1ccc(O)cc1,,"CD-1 mouse, female",100 mg/kg,dose-normalized Cmax,9.47 (nmol/mL)/(mmol/kg)
c1ccc2c(c1)cc1ccc3cccc4ccc2c1c34,,"zebrafish embryos, whole embryo","630.75 ng/well, 48 hpf, single exposure",amount in tissue,0.521 ng/well and 0.853 ng/well and 0.744 ng/well and 0.45 ng/well
O=C(O)C(F)(F)C(F)(F)C(F)(F)C(F)(F)C(F)(F)C(F)(F)C(F)(F)F,potentiometry,,,pKa,3.8
COc1ccc(C(=O)Nc2ccccc2CCC2CCCCN2C)cc1 (stereo not drawn),,"human, plasma","concentration not given, range of reported values",Cmax,0.684 to 2.83 µM
c1cc2ccc3cccc4ccc(c1)c2c34,,fish,"dose not given, experimental mean",bioconcentration factor,169000 L/kg
CO[C@H]1C[C@H](O[C@H]2[C@H](C)[C@@H](O[C@@H]3O[C@H](C)C[C@H](N(C)C)[C@H]3OC(C)=O)[C@@H](C)C[C@@]3(CO3)C(=O)[C@H](C)[C@@H](OC(C)=O)[C@@H](C)[C@@H](C)OC(=O)[C@@H]2C)O[C@@H](C)[C@@H]1OC(C)=O,,human liver microsomes 1 mg/mL,literature value,unbound fraction,0.73
O=C1CCc2ccc(OCCCCN3CCN(c4cccc(Cl)c4Cl)CC3)cc2N1,,mouse,,fraction unbound,0.001
COc1ccc(C[C@H](NC(=O)[C@H](C)NC(=O)CN2CCOCC2)C(=O)N[C@@H](Cc2ccccc2)C(=O)C2(C)CO2)cc1 (stereo in doubt),,mouse arthritis model,intravenous,maximum tolerated dose,30 mg/kg
NC12CC3CC(CC(C3)C1)C2,,mouse,,fraction unbound,0.181
O=C(O)C(F)(F)C(F)(F)C(F)(F)C(F)(F)C(F)(F)C(F)(F)C(F)(F)F,,cancer patients,phase I dose-escalation trial,t1/2,116 days

# Some of these lines once more:
Structure (SMILES),assay,system,conditions,quantity,result
Cn1cc2cc(C(F)(F)c3nnc4ccc(-c5cnn(C6CC6)c5)nn34)c(F)cc2n1,,"mouse, MKN-45 and patient-derived xenografts","dose not given, no deaths or major weight loss",tolerability,not toxic
O=C1C[C@@H](c2ccc(O)cc2)Oc2cc(O)cc(O)c21,,"human, plasma","concentration not given, with: grapefruit juice",plasma concentration,~6 µM
NC(=O)c1nc(F)c[nH]c1=O,,hamster,"intraperitoneal, 12.5 mg",lung concentration,90.7 µg/g
